{"data": "Assay results pooled from the literature", "Chymotrypsinogen A": "Chymotrypsinogen A (Bos taurus, UniProt P00766)", "SLC6A3": "Sodium-dependent dopamine transporter (SLC6A3, Homo sapiens, UniProt Q01959)", "SLC6A2": "Sodium-dependent noradrenaline transporter (SLC6A2, Homo sapiens, UniProt P23975)", "SIGMAR1": "Sigma non-opioid intracellular receptor 1 (SIGMAR1, Homo sapiens, UniProt Q99720)", "ache": "Acetylcholinesterase (ache, Electrophorus electricus, UniProt O42275)", "OPRK1": "Kappa-type opioid receptor (OPRK1, Homo sapiens, UniProt P41145)", "CARM1": "Histone-arginine methyltransferase CARM1 (CARM1, Homo sapiens, UniProt Q86X55)", "note": "Lines come from different studies, so protocols differ. Several values in a cell are separate wells, animals, samples, runs or records. ± marks the error that the study gave.", "UniProt Q01959, sequence (whole entry, looked up)": "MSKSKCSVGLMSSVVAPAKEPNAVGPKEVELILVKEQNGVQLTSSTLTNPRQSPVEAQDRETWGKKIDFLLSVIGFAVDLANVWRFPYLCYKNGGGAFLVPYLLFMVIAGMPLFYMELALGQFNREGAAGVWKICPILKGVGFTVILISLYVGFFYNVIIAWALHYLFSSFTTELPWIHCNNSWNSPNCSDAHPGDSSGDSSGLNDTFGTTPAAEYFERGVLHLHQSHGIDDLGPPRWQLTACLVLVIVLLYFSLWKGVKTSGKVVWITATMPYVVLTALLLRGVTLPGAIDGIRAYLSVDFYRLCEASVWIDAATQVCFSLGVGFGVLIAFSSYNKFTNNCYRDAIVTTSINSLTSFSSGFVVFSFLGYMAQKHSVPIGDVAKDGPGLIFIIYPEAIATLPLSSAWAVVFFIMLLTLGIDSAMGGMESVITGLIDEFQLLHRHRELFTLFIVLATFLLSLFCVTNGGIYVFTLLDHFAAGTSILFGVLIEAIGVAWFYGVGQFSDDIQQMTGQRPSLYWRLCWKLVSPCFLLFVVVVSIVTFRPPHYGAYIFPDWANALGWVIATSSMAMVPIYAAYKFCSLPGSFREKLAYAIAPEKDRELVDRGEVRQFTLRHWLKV", "UniProt O42275, sequence (whole entry, looked up)": "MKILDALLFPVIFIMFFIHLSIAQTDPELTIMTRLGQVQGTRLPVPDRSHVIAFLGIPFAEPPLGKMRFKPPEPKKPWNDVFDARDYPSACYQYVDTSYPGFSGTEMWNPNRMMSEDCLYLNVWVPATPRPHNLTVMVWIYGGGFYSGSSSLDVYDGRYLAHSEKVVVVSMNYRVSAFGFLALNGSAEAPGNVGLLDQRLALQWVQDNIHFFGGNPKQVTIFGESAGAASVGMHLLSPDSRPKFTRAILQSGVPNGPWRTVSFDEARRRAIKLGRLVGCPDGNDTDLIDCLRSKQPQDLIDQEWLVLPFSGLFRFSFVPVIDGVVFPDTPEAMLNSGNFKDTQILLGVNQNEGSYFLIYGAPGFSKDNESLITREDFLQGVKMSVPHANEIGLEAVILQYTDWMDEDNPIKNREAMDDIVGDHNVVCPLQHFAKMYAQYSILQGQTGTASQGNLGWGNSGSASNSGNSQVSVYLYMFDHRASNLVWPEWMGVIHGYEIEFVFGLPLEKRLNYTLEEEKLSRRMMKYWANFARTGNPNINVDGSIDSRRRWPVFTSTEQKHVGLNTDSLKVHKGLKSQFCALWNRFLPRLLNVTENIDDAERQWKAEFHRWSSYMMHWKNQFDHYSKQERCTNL", "UniProt P41145, sequence (whole entry, looked up)": "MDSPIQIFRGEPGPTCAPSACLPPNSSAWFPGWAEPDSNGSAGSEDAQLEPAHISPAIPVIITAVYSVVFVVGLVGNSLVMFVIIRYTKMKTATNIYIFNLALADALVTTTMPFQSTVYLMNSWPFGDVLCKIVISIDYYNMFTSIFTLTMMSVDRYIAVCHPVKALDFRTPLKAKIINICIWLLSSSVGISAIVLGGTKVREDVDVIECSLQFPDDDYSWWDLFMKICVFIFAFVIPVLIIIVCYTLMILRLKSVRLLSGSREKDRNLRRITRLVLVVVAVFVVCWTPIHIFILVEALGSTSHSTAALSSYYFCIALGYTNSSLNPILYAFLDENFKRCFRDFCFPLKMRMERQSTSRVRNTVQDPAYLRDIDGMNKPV", "UniProt Q86X55, sequence (whole entry, looked up)": "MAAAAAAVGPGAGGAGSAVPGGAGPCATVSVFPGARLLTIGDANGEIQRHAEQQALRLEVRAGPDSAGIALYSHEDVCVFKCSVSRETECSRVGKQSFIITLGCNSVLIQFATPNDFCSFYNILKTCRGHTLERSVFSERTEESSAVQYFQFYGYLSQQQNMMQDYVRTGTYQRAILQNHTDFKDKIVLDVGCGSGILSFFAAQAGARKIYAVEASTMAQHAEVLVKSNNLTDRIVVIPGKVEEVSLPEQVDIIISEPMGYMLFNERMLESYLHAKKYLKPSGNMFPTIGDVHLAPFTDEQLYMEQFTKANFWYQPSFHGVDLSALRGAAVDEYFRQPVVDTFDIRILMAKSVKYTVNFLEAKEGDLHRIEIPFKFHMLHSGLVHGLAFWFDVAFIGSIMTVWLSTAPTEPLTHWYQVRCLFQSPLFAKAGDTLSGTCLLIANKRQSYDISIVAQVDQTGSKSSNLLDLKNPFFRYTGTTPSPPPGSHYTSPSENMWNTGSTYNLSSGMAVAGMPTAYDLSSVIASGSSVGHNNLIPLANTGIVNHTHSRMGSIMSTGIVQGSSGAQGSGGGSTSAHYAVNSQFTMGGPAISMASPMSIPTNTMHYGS", "UniProt Q99720, sequence (whole entry, looked up)": "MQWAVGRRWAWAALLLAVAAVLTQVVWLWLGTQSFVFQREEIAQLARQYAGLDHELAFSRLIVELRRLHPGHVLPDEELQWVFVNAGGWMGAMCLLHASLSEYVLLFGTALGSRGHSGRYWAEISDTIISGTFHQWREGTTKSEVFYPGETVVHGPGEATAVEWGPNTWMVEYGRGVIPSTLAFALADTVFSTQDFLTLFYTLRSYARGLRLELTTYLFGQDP", "UniProt P23975, sequence (whole entry, looked up)": "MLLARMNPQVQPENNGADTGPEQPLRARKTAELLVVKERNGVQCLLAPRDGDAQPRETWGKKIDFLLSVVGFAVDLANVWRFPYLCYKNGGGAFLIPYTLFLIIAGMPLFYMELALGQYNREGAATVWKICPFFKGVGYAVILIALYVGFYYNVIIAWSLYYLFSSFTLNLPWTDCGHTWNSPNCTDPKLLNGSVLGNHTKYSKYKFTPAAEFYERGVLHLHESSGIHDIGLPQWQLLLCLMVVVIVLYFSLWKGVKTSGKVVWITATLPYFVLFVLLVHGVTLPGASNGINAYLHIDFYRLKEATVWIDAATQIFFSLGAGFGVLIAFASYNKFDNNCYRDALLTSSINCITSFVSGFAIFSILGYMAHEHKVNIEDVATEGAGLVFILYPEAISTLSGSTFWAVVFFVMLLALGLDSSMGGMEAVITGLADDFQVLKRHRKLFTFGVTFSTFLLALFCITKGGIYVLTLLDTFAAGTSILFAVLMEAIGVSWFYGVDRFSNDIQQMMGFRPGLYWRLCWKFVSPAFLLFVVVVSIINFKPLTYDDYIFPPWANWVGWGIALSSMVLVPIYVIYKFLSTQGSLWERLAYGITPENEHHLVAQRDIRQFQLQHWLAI", "UniProt P33913, sequence (whole entry, looked up)": "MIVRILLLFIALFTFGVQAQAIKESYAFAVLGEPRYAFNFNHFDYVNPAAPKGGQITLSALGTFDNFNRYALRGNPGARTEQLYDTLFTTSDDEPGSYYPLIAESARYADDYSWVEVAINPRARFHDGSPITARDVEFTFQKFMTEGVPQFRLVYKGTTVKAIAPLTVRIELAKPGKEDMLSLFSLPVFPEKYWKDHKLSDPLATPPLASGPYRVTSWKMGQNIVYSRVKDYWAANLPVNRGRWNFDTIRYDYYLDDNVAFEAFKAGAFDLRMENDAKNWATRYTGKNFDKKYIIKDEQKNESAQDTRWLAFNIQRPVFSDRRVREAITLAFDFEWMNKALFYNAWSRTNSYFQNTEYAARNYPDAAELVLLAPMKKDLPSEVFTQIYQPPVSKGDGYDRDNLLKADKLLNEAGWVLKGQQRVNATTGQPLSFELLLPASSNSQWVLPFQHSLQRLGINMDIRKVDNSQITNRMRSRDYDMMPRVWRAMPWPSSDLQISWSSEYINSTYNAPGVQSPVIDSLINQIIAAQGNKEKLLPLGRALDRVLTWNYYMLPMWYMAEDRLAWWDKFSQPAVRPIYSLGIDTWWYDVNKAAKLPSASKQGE", "UniProt P34969, sequence (whole entry, looked up)": "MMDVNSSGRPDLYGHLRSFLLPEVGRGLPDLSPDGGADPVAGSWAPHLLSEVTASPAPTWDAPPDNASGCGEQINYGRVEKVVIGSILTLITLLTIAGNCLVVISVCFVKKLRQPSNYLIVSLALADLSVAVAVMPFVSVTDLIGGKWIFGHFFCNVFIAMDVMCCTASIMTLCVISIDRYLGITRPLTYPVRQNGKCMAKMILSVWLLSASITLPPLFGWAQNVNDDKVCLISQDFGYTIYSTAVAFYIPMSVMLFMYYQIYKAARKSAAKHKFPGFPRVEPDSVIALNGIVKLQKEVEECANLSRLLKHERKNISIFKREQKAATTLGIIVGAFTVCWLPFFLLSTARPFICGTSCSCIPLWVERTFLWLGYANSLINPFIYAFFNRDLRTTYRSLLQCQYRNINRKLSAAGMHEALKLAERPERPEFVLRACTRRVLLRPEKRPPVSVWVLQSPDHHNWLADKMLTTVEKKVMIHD", "UniProt P11229, sequence (whole entry, looked up)": "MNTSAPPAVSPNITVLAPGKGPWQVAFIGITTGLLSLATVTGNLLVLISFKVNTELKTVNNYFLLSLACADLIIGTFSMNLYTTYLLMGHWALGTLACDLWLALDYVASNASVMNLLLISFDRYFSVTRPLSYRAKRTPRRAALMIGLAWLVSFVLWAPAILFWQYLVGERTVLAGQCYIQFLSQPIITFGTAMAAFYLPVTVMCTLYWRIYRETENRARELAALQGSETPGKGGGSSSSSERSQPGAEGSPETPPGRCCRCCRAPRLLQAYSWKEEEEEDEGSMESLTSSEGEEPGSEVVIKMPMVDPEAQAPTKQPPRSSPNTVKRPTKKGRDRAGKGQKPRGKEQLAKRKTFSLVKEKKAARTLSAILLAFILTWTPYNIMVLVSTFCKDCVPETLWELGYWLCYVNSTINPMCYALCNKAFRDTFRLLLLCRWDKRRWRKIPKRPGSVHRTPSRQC", "UniProt Q6DWJ6, sequence (whole entry, looked up)": "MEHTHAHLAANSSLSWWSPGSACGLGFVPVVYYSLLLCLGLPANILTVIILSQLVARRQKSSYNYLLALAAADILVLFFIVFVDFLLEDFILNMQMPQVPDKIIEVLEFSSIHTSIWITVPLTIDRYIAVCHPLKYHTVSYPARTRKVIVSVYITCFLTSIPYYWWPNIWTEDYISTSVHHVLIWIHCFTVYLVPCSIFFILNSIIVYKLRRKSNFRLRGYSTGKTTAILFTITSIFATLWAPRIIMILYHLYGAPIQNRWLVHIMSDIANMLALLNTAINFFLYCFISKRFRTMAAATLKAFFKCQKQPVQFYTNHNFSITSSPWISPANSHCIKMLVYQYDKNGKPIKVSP"}
{"Compound": "F[B-](F)(F)c1ccc(/N=N/c2ccccc2)cc1", "tested on": "Chymotrypsinogen A", "assay": "enzyme activity, inhibitor", "conditions": "pH 7.81, 25 °C, cis-enriched photostationary state, together with: Suc-AAPF-AMC", "endpoint": "Ki", "result": "443 µM"}
{"Compound": "COC(=O)[C@H]1[C@@H](c2ccc(Cl)cc2)C[C@@H]2CC[C@H]1N2CCCc1ccc2cc3ccccc3cc2c1", "tested on": "SLC6A3", "assay": "ligand displacement, radioligand", "conditions": "pH 7.4", "endpoint": "Ki", "result": "0.0087 µM"}
{"Compound": "C[C@@H](CN1CCC(Cc2ccccc2)CC1)[C@@H](O)c1ccc(O)cc1", "tested on": "SLC6A2", "assay": "binding, inhibitor", "endpoint": "Ki", "result": "1.25 µM"}
{"Compound": "C[C@@H](Oc1ccc2c(c1)[C@H]1CCN[C@@]1(C)CO2)c1ccccc1", "tested on": "SIGMAR1", "assay": "cell-free assay, radioligand", "endpoint": "Ki", "result": "0.0019 µM"}
{"Compound": "CC(C)C[C@H](NC(=O)[C@H](CCCCN)NC(=O)[C@H](CCCCN)NC(=O)Cc1cccc(CNC(=O)[C@@H](C)NC(=N)N)c1)B(O)O", "tested on": "Chymotrypsinogen A", "assay": "enzyme activity, inhibitor, fluorescence", "endpoint": "Ki", "result": "0.1 µM"}
{"Compound": "COc1cccc(COc2ccc3c(c2)[C@H]2CCN[C@@]2(C)CO3)c1", "tested on": "SIGMAR1", "assay": "cell-free assay, radioligand", "endpoint": "Ki", "result": "0.0037 µM"}
{"Compound": "O=S(=O)(N/N=C/c1ccc(OS(=O)(=O)c2ccccc2)cc1)c1ccc(Cl)cc1", "tested on": "ache", "assay": "enzyme activity, inhibitor, Ellman", "endpoint": "Ki", "result": "0.042 µM"}
{"Compound": "O=C(Cc1cccc(Cl)c1)N1CCN[C@@H]2COC[C@H](N3CCCC3)[C@H]21 (relative stereo)", "tested on": "OPRK1", "assay": "cell-free assay", "endpoint": "Ki", "result": "0.43 µM"}
{"Compound": "O=C1NC2(CC2)COc2ncc(F)cc2[C@H]2COCCN2c2ccn3ncc1c3n2", "test system": "Sprague-Dawley rat, male, serum", "conditions": "oral, 2.5 mg/kg/day, end of recovery, 4-week subacute toxicity", "endpoint": "serum total protein", "result": "58.8 ± 1.9 g/L"}
{"Compound": "CC(=O)c1cccc(/N=N/c2cccc([B-](F)(F)F)c2)c1", "tested on": "Chymotrypsinogen A", "assay": "enzyme activity, competitive inhibitor", "test system": "buffer with 2 vol% DMSO", "conditions": "pH 7.81, 25 °C, thermally adapted trans state, together with: Suc-AAPF-AMC", "endpoint": "Ki", "result": "219 µM"}
{"Compound": "CN(C)[C@H](CNC(=O)/C=C/c1cccc2ccccc12)Cc1ccc(O)cc1", "tested on": "ADRB2 (Homo sapiens, UniProt P07550)", "assay": "cell-free assay", "endpoint": "Ki", "result": "6.7 µM"}
{"Compound": "O=C(Cc1ccc(Cl)c(Cl)c1)N1CCN[C@@H]2COC[C@H](N3CCCC3)[C@H]21 (relative stereo)", "tested on": "OPRK1", "assay": "cell-free assay", "endpoint": "Ki", "result": "0.052 µM"}
{"Compound": "CC(C)C[C@H](NC(=O)CNC(=O)[C@H](CCC(N)=O)NC(=O)[C@H](CC(C)C)NC(=O)[C@H](CC(C)C)NC(=O)[C@H](CCCNC(=N)N)NC(=O)[C@H](CCC(N)=O)NC(=O)[C@H](Cc1ccc(C(=O)c2ccccc2)cc1)NC(=O)[C@H](CCCNC(=N)N)NC(=O)[C@H](C)NC(=O)[C@H](CO)NC(=O)[C@H](CC(=O)O)NC(=O)[C@H](CCC(N)=O)NC(=O)[C@H](CC(C)C)NC(=O)[C@H](CCCNC(=N)N)NC(=O)[C@H](CO)NC(=O)[C@H](Cc1ccc(O)cc1)NC(=O)[C@H](CCC(=O)O)NC(=O)[C@H](CO)NC(=O)[C@@H](NC(=O)[C@H](Cc1ccccc1)NC(=O)[C@@H](NC(=O)CNC(=O)[C@H](CC(=O)O)NC(=O)[C@H](CO)NC(=O)[C@@H](N)Cc1c[nH]cn1)[C@@H](C)O)[C@@H](C)O)C(=O)N[C@H](C(N)=O)C(C)C", "tested on": "Sctr (Rattus norvegicus, UniProt P23811)", "assay": "ligand displacement in cells, radioligand", "endpoint": "Ki", "result": "> 1 µM"}
{"Compound": "Cc1cc(C)cc(/N=N/c2cccc([B-](F)(F)F)c2)c1", "tested on": "Chymotrypsinogen A", "assay": "enzyme activity, competitive inhibitor", "test system": "buffer with 2 vol% DMSO", "conditions": "pH 7.81, 25 °C, thermally adapted trans state, together with: Suc-AAPF-AMC", "endpoint": "Ki", "result": "40.9 µM and 41 µM"}
{"Compound": "Cc1cc(C(=O)Nc2nc3cccc(C)c3n2[C@H]2CCCCN(C(=O)/C=C/CN(C)C)C2)ccn1", "tested on": "Trypanosoma brucei brucei", "test system": "2T1 CLK1 overexpressing", "conditions": "0.3125 µM, DMSO pretreated", "scale": "baseline: maximum", "endpoint": "survival", "result": "64.2% and 66% and 62.5% and 57.4%"}
{"Compound": "CCCCc1ccc(/N=N/c2cccc([B-](F)(F)F)c2)cc1", "tested on": "Chymotrypsinogen A", "assay": "enzyme activity, competitive inhibitor", "test system": "buffer with 2 vol% DMSO", "conditions": "pH 7.81, 25 °C, thermally adapted trans state, together with: Suc-AAPF-AMC", "endpoint": "Ki", "result": "286 µM and 285 µM"}
{"Compound": "Nc1ncnc2c1c(-c1ccc(Oc3ccccc3)cc1)nn2C1CCCC1", "tested on": "CSK (Homo sapiens, UniProt P41240, T266M)", "assay": "enzyme activity, inhibitor", "endpoint": "Ki", "result": "1.42 µM"}
{"Compound": "CC(C)(C)C(=O)OCOP(=O)(OCOC(=O)C(C)(C)C)C1CCCN(O)C1=O (stereo not drawn)", "tested on": "SW-620", "endpoint": "log LC50", "result": "> -4 log M"}
{"Compound": "Cc1c(/N=N/c2ccccc2)cccc1[B-](F)(F)F", "tested on": "Chymotrypsinogen A", "assay": "enzyme activity, inhibitor", "conditions": "pH 7.81, 25 °C, cis-enriched photostationary state, together with: Suc-AAPF-AMC", "endpoint": "Ki", "result": "352 µM"}
{"Compound": "NC1CCSC1=O (stereo not drawn)", "tested on": "CA9 (Homo sapiens, UniProt Q16790)", "assay": "CO2 hydration activity, inhibitor, stopped-flow CO2 hydration", "conditions": "room temperature preincubation", "endpoint": "Ki", "result": "> 100 µM"}
{"Compound": "CSCC[C@H](NC=O)C(=O)N[C@@H](CCCNC(=N)N)C(=O)N[C@H](C(=O)NCC(=O)N[C@@H](CC(N)=O)C(=O)N[C@@H](C)C(=O)N[C@@H](CC(N)=O)C(=O)O)[C@@H](C)O", "tested on": "Uncharacterized protein YejA (yejA, Escherichia coli, UniProt P33913)", "assay": "binding, competition fluorescence polarization", "endpoint": "Ki", "result": "~0.12 µM and 0.12 µM"}
{"Compound": "F[B-](F)(F)c1cccc(/N=N/c2ccccc2)c1", "tested on": "Chymotrypsinogen A", "assay": "enzyme activity, inhibitor", "conditions": "pH 7.81, 25 °C, cis-enriched photostationary state, together with: Suc-AAPF-AMC", "endpoint": "Ki", "result": "17.1 µM"}
{"Compound": "O=C1c2ccccc2CCCN1CCCCN1CCN(c2cccc(Cl)c2Cl)CC1", "tested on": "HTR7 (Homo sapiens, UniProt P34969)", "assay": "ligand displacement, radioligand", "endpoint": "Ki", "result": "0.02 µM"}
{"Compound": "F[B-](F)(F)c1cccc(/N=N/c2ccccc2I)c1", "tested on": "Chymotrypsinogen A", "assay": "enzyme activity, competitive inhibitor", "test system": "buffer with 2 vol% DMSO", "conditions": "pH 7.81, 25 °C, thermally adapted trans state, together with: Suc-AAPF-AMC", "endpoint": "Ki", "result": "50.2 µM"}
{"Compound": "COC(=O)[C@H]1[C@@H](c2ccc(Cl)c(Cl)c2)C[C@@H]2CC[C@H]1N2Cc1c2ccccc2cc2ccccc12", "tested on": "SLC6A3", "assay": "ligand displacement, radioligand", "conditions": "pH 7.4", "endpoint": "Ki", "result": "0.62 µM"}
{"Compound": "Cc1cc(O)cc(C)c1C[C@H](N)C(=O)N[C@H](CCCNC(=N)N)C(=O)N[C@@H](Cc1ccccc1)C(=O)N(C)CC(=O)N(C)Cc1cc(C(F)(F)F)cc(C(F)(F)F)c1", "tested on": "OPRD1 (Homo sapiens, UniProt P41143, G268V)", "endpoint": "Ki", "result": "0.00717 ± 0.00173 µM"}
{"Compound": "COc1ccccc1-c1n[nH]c2nc(NC3CCN(C(=O)Cc4ccc(F)cc4F)CC3)ncc12", "assay": "bead binding, competition bead pull-down, measured: LINJ.35.1150", "test system": "Leishmania donovani extract", "conditions": "10 µM", "scale": "baseline: vehicle", "endpoint": "relative abundance", "result": 0.95}
{"Compound": "CC(=O)NCCCC[C@H](NC(=O)[C@H](CCCNC(=N)NCCC[C@H]1O[C@@H](n2cnc3c(N)ncnc32)[C@H](O)[C@@H]1O)NC(=O)[C@@H]1CCCN1C(=O)[C@H](C)NC(=O)[C@H](CCCCN)NC(=O)CNC(C)=O)C(=O)N[C@@H](CCC(N)=O)C(=O)N[C@@H](CC(C)C)C(=O)N[C@@H](C)C(=O)N[C@H](C(N)=O)[C@@H](C)O (relative stereo)", "tested on": "CARM1", "assay": "enzyme activity, inhibitor", "endpoint": "Ki", "result": "0.03 µM"}
{"Compound": "O=[N+]([O-])c1ccc(S(=O)(=O)Oc2ccc(/C=N/NS(=O)(=O)c3cc(Cl)ccc3Cl)cc2)cc1", "tested on": "ache", "assay": "enzyme activity, inhibitor, Ellman", "endpoint": "Ki", "result": "0.0101 µM and 0.0184 µM"}
{"Compound": "COc1cc2c(cc1O)C(CCc1ccc(Cl)cc1)N(C)CC2 (stereo not drawn)", "tested on": "SLC6A2", "assay": "cell-free assay, radioligand", "endpoint": "Ki", "result": "1.4 µM"}
{"Compound": "COC(=O)[C@H]1[C@@H](c2ccc(Cl)c(Cl)c2)C[C@@H]2CC[C@H]1N2Cc1c2ccccc2c(Cl)c2ccccc12", "tested on": "SLC6A3", "assay": "ligand displacement, radioligand", "conditions": "pH 7.4", "endpoint": "Ki", "result": "0.57 µM"}
{"Compound": "O=S(=O)(N/N=C/c1ccc(OS(=O)(=O)c2ccc(Cl)cc2)cc1)c1ccc(Cl)cc1", "tested on": "ache", "assay": "enzyme activity, inhibitor, Ellman", "endpoint": "Ki", "result": "0.0362 µM"}
{"Compound": "CC(=O)NCC(=O)N[C@@H](CCCCN)C(=O)N[C@@H](C)C(=O)N1CCC[C@H]1C(=O)N[C@@H](CCCNC(=N)NCCC[C@H]1O[C@@H](n2cnc3c(N)ncnc32)[C@H](O)[C@@H]1O)C(=O)N[C@@H](CCCCN)C(=O)N[C@@H](CCC(N)=O)C(=O)N[C@@H](CC(C)C)C(=O)N[C@@H](C)C(=O)N[C@H](C(N)=O)[C@@H](C)O (relative stereo)", "tested on": "CARM1", "assay": "enzyme activity, inhibitor", "endpoint": "Ki", "result": "0.02 µM"}
{"Compound": "Cc1ccc(/N=N/c2cccc([B-](F)(F)F)c2)cc1", "tested on": "Chymotrypsinogen A", "assay": "enzyme activity, competitive inhibitor", "test system": "buffer with 2 vol% DMSO", "conditions": "pH 7.81, 25 °C, thermally adapted trans state, together with: Suc-AAPF-AMC", "endpoint": "Ki", "result": "3.04 µM and 3 µM"}
{"Compound": "CN(C)[C@H]1COC[C@H]2NCCN(C(=O)Cc3ccc(Cl)c(Cl)c3)[C@@H]21 (relative stereo)", "tested on": "OPRK1", "assay": "cell-free assay", "endpoint": "Ki", "result": "0.11 µM"}
{"Compound": "CC(C)C[C@H](NC(=O)[C@H](Cc1ccccc1)NC(=O)CNC(=O)CNC(=O)[C@@H](N)Cc1ccc(O)cc1)C(=O)N[C@@H](CCCN=C(N)N)C(=O)N[C@@H](CCCN=C(N)N)C(=O)N[C@@H](CCC(N)=O)C(=O)N[C@@H](Cc1ccccc1)C(=O)N[C@@H](CCCCN)C(=O)N[C@H](C(=O)N[C@H](C(=O)N[C@H](C(=O)O)[C@@H](C)O)C(C)C)C(C)C", "tested on": "GPR139 (Homo sapiens, UniProt Q6DWJ6)", "assay": "ligand displacement, radioligand", "conditions": "cell membranes", "endpoint": "Ki", "result": "0.259 µM"}
{"Compound": "CCOC(=O)C(CC)(CC)NC(=O)c1ccc(C2CC2)c(Cc2ccc(F)cc2)n1", "tested on": "Cnr1 (Mus musculus, UniProt P47746)", "assay": "ligand displacement, radioligand", "conditions": "cell membranes", "endpoint": "Ki", "result": "0.0085 µM"}
{"Compound": "COC(=O)[C@H]1[C@@H](c2ccc(Cl)c(Cl)c2)C[C@@H]2CC[C@H]1N2CCCCCc1c2ccccc2cc2ccccc12", "tested on": "SLC6A3", "assay": "ligand displacement, radioligand", "conditions": "pH 7.4", "endpoint": "Ki", "result": "0.15 µM"}
{"Compound": "C[C@@H](Cc1ccsc1)NC(=O)NC[C@H](Cc1ccc(O)cc1)N(C)C", "tested on": "CHRM1 (Homo sapiens, UniProt P11229)", "assay": "cell-free assay", "endpoint": "Ki", "result": "3.4 µM"}
